{"data": "Measurements gathered from unrelated publications", "note": "Protocols differ between the studies behind these lines.", "chain of UniProt P00519 (whole entry, unmodified, looked up)": "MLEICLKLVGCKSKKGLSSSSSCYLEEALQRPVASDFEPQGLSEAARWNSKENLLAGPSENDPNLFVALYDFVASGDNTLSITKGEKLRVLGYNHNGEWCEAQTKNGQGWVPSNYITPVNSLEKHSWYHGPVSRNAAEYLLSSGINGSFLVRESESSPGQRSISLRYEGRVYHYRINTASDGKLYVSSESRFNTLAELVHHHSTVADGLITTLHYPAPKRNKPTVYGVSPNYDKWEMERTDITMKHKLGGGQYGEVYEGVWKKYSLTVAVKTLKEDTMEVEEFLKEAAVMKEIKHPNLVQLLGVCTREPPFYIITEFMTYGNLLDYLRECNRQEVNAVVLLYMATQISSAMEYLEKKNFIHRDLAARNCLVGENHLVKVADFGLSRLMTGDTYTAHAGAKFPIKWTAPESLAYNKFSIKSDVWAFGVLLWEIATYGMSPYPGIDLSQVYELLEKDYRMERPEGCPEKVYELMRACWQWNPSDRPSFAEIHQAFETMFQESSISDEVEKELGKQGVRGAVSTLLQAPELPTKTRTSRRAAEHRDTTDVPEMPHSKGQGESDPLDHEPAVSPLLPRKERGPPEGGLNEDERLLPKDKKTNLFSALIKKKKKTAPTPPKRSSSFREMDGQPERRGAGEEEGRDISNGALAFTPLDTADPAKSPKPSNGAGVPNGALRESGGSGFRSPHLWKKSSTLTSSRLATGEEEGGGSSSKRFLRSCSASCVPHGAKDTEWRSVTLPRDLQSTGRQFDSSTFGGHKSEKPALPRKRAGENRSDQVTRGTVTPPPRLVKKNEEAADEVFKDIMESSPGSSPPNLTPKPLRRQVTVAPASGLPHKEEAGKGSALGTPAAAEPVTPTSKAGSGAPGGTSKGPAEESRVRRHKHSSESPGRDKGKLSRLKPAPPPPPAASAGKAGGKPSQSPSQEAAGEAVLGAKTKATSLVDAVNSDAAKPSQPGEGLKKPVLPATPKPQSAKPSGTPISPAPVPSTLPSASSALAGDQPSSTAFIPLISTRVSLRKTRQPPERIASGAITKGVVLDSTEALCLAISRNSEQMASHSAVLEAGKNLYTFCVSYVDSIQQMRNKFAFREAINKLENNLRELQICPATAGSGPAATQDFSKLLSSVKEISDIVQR", "chain of UniProt P61075 (whole entry, looked up)": "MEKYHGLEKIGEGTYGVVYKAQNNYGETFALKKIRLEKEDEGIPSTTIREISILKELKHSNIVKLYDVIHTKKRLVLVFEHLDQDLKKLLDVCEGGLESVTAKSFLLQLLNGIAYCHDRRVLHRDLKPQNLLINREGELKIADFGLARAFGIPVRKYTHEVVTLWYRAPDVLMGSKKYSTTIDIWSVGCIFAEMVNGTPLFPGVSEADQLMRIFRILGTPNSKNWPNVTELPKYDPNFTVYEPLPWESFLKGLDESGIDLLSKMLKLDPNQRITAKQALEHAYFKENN", "chain of UniProt Q14289 (whole entry, looked up)": "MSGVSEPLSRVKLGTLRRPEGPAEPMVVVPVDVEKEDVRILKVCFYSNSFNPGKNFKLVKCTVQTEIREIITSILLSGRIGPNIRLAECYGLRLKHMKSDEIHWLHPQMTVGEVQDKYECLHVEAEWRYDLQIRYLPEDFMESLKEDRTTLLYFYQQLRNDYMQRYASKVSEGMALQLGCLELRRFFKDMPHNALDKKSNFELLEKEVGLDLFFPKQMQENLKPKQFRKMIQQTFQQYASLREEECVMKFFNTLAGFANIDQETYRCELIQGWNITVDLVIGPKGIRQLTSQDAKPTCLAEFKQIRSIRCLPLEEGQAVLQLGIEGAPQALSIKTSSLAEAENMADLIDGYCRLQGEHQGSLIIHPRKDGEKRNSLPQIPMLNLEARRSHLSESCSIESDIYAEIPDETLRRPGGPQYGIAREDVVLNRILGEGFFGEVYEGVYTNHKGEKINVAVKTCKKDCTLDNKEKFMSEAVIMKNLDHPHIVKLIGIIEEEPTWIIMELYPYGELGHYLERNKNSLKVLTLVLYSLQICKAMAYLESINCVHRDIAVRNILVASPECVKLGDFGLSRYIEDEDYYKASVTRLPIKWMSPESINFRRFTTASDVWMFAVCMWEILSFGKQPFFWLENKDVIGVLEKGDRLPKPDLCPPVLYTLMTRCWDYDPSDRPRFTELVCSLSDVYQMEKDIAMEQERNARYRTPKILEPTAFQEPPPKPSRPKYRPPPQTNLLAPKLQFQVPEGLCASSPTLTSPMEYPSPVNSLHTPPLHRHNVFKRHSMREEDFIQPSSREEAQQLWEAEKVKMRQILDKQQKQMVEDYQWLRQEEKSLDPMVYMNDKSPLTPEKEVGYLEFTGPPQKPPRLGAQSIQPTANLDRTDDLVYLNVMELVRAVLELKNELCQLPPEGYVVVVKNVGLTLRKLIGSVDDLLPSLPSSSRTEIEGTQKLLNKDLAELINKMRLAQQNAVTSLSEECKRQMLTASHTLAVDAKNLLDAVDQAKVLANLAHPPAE", "chain of UniProt Q16288 (whole entry, looked up)": "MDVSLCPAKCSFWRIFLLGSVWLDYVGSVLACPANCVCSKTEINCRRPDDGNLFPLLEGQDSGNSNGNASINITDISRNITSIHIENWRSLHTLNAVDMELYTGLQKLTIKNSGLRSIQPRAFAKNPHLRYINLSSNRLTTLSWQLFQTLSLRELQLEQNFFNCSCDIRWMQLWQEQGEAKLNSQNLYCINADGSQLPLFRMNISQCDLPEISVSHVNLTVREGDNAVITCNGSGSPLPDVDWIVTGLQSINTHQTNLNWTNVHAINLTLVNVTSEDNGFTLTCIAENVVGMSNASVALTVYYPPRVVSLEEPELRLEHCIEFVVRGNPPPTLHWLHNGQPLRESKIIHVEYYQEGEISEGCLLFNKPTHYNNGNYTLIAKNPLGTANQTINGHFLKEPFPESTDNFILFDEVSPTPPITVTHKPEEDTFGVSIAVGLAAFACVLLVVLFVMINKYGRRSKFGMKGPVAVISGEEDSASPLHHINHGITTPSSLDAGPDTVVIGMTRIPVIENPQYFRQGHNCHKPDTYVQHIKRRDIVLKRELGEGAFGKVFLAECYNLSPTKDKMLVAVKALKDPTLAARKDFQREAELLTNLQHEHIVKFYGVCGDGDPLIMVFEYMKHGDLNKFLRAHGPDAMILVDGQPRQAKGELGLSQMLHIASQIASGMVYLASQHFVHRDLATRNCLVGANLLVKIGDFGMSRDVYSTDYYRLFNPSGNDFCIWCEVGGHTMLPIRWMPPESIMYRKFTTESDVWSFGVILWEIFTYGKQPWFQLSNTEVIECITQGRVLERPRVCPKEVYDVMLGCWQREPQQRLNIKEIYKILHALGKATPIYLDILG", "chain of UniProt P10721 (whole entry, unmodified, looked up)": "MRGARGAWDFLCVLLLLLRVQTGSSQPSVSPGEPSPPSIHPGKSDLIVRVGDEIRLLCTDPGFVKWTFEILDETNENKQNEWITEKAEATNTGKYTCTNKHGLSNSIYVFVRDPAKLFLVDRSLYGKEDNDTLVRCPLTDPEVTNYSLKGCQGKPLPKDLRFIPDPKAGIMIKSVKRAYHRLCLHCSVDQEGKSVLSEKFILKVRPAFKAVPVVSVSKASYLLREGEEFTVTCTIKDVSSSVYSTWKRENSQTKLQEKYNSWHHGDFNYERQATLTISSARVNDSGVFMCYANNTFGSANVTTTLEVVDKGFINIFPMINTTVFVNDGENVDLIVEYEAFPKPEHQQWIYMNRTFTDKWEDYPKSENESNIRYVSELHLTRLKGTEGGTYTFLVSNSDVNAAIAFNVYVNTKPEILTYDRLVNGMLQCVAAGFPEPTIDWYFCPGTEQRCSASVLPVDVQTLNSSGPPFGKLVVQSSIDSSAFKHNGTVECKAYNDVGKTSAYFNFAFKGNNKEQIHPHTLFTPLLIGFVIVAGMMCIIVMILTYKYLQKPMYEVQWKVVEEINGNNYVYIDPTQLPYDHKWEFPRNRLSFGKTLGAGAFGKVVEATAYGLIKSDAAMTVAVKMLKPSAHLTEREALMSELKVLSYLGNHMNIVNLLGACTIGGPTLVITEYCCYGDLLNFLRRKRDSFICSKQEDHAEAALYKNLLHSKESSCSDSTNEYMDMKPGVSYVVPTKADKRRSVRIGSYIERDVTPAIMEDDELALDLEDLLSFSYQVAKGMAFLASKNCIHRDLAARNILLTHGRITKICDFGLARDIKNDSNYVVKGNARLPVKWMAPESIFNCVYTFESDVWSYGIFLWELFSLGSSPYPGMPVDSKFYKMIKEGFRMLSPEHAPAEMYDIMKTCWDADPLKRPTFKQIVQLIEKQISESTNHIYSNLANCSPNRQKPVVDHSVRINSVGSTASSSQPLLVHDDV"}
{"Structure (SMILES)": "O=C1CC[C@H](N2Cc3cc(N4CCN(CC5CCN(c6ccc([C@@H]7c8ccc(O)cc8CC[C@@H]7c7ccccc7)cc6)CC5)CC4)ccc3C2=O)C(=O)N1", "system": "male Sprague-Dawley rat, plasma", "setting": "oral, 20 mg/kg, fasted", "measurement": "AUC(0-inf)", "result": "6140 ng·h/mL"}
{"Structure (SMILES)": "CC(C)(Nc1nc(-c2ccccn2)nc2ccccc12)c1ccccn1", "system": "female BALB/c mouse, plasma", "setting": "intravenous, 1 mg/kg, 2 h", "measurement": "concentration", "result": "201 ng/mL"}
{"Structure (SMILES)": "O=C1CCC(N2Cc3cc(CO)c(F)cc3C2=O)C(=O)N1 (stereo not drawn)", "system": "male CD-1 mouse, plasma", "setting": "intravenous, 1 mg/kg, 30 min", "measurement": "concentration", "result": "149 ng/mL"}
{"Structure (SMILES)": "CCOC(=O)c1cc(Cl)cc(NC(=O)c2sc(Cl)cc2S(=O)(=O)N(C)c2ccc(OCC)c(OC)c2)c1", "system": "male C57BL/6 mouse, brain", "setting": "intraperitoneal, 10 mg/kg, 15 min", "measurement": "concentration", "result": "10.3 ng/g"}
{"Structure (SMILES)": "COc1cccc(-c2n[nH]c(SCc3ccccn3)n2)c1OC", "system": "female Sprague-Dawley rat, plasma", "setting": "oral, 10 mg/kg, 15 min, single dose", "measurement": "concentration", "result": "14900 ng/mL"}
{"Structure (SMILES)": "NCc1cc2c(cc1F)C(=O)N(C1CCC(=O)NC1=O)C2 (stereo not drawn)", "system": "male cynomolgus monkey, plasma", "setting": "oral, 0.3 mg/kg, 6 h", "measurement": "concentration", "result": "0.31 ng/mL"}
{"Structure (SMILES)": "Cc1noc(C)c1Cn1cc(N2C(=O)CN(Cc3cccc(O)c3)C2=O)cn1", "system": "male Sprague-Dawley rat, plasma", "setting": "oral, 100 mg/kg, 2 h", "measurement": "concentration", "result": "50.5 ng/mL"}
{"Structure (SMILES)": "COc1cc(-c2cncc3c2CN(C)Cc2cc(N4CCNCC4)ccc2-3)cc(OC)c1OC", "target or system": "Protein-tyrosine kinase 2-beta (PTK2B, Homo sapiens, UniProt Q14289)", "test": "enzyme activity, inhibitor", "setting": "1 µM", "measurement": "remaining activity", "result": "100%"}
{"Structure (SMILES)": "C=CC(=O)N1CCC(COCC(=O)N2CCN(c3nc(-c4cnc(N)nc4C(F)F)nc(N4CCOC[C@@H]4C)n3)CC2)CC1", "target or system": "Cyclin-dependent kinase 2 homolog (CRK2, Plasmodium falciparum, UniProt P61075)", "test": "binding, competition with immobilised ligand", "setting": "1 µM", "measurement": "remaining binding", "result": "92%"}
{"Structure (SMILES)": "CCc1cc(-c2noc(-c3cc(OC)nc(C4CCCC4)c3)n2)cc(C)c1OC[C@@H](O)CO", "system": "Wistar rat, plasma", "setting": "oral, 3 mg/kg, 6 h, single dose", "measurement": "concentration", "result": "174 ng/mL"}
{"Structure (SMILES)": "CNc1ncc2c(/C=C/C(=O)N3CCC(OC)CC3)nn(Cc3cccc(C(F)(F)F)c3)c2n1", "target or system": "NT-3 growth factor receptor (NTRK3, Homo sapiens, UniProt Q16288)", "test": "enzyme activity, inhibitor, radiometric", "setting": "1 µM", "measurement": "remaining activity", "result": "83%"}
{"Structure (SMILES)": "CN(C)CC#Cc1ccc2[nH]c3c(c2c1)-c1nc(N)ncc1CCC3", "system": "male CD-1 mouse, brain", "setting": "intraperitoneal, 30 mg/kg, 1 h", "measurement": "concentration", "result": "459 ng/g"}
{"Structure (SMILES)": "CCCCC(=O)Nc1ccc(-c2ccc3ncn(CCC)c(=O)c3c2)cn1", "target or system": "Tyrosine-protein kinase ABL1, non-phosphorylated (ABL1, Homo sapiens, UniProt P00519, Q252H)", "test": "binding, competition with immobilised ligand", "setting": "0.5 µM", "measurement": "remaining binding", "result": "81%"}
{"Structure (SMILES)": "Cc1cc([C@@H](C)Nc2ccccc2C(=O)O)c2nc(N3CCC(F)(F)CC3)c(C#N)c(=O)n2c1", "target or system": "Mast/stem cell growth factor receptor Kit (KIT, Homo sapiens, UniProt P10721, D816V)", "test": "binding, competition with immobilised ligand", "setting": "10 µM", "measurement": "remaining binding", "result": "100%"}
{"Structure (SMILES)": "CCOC(=O)[C@@]12C[C@@H]1[C@@H](n1ccc3c(NC)nc(C#Cc4ccc(Cl)s4)nc31)[C@H](O)[C@@H]2O", "system": "male Sprague-Dawley rat, plasma", "setting": "oral, 10 mg/kg, 30 min", "measurement": "concentration", "result": "156 ng/mL"}
{"Structure (SMILES)": "O=c1nc(N2CCN(CC3CCCCC3)CC2)sc2c([N+](=O)[O-])cc(C(F)(F)F)cc12", "system": "CD-1 mouse, plasma", "setting": "intravenous, 10 mg/kg, 2 h", "measurement": "concentration", "result": "375 ng/mL"}
{"Structure (SMILES)": "C/C(=N\\c1ccc(O)cc1)c1cc2ccccc2n1C", "system": "male Sprague-Dawley rat, plasma", "setting": "intravenous, 5 mg/kg, 24 h, single dose", "measurement": "concentration", "result": "9.6 ng/mL"}
{"Structure (SMILES)": "COc1ccc2c(=O)n(C)c(-c3ccccc3)nc2c1", "system": "male Sprague-Dawley rat, spleen", "setting": "oral, 30 mg/kg, 2 h", "measurement": "concentration", "result": "2.36 ng/mL"}
{"note": "For quick reference, copied from above:"}
{"Structure (SMILES)": "CCCCC(=O)Nc1ccc(-c2ccc3ncn(CCC)c(=O)c3c2)cn1", "target or system": "Tyrosine-protein kinase ABL1, non-phosphorylated (ABL1, Homo sapiens, UniProt P00519, Q252H)", "test": "binding, competition with immobilised ligand", "setting": "0.5 µM", "measurement": "remaining binding", "result": "81%"}
